Measurements gathered from unrelated publications.
Numbers after ± are the reported error.

With `c1ccc(CCNC2CCCc3c2[nH]c2ccc(C4CCCCC4)cc32)cc1` (stereo not drawn) the MIC was 5 µg/mL (Streptococcus parasanguinis; broth microdilution; ATCC 903, THY medium).
For `CO[C@H]1/C=C/O[C@@]2(C)Oc3c(C)c(O)c4c(c3C2=O)C2=NC3(CCN(CC(C)C)CC3)NC2=C(NC(=O)/C(C)=C\C=C\[C@H](C)[C@H](O)[C@@H](C)[C@@H](O)[C@@H](C)[C@H](OC(=O)c2cccnc2)[C@@H]1C)C4=O`, the MIC was 0.026 µM (Mycobacteroides abscessus; ATCC 19977 arr deletion; 90% growth inhibition).
With `C[N+]1=C2C(c3ccc(Cl)cc3)=[N+]([O-])c3ccccc3N2CCC1` the MIC was 4 µg/mL (Porphyromonas sp.).
For `CN[C@@H]1[C@H](O)[C@H](NC)[C@H]2O[C@]3(O)[C@H](O[C@@H]2[C@H]1O)O[C@H](C)C[C@@]3(O)CNCCC1CCOCC1`, the MIC was 8 µg/mL (Mycobacteroides abscessus; ATCC 19977 whiB7 MAB_2355 deleted; 120 h).
`OB(O)c1ccc(OCc2ccccc2)nc1F` has an MIC of 8 µg/mL (Enterobacter cloacae; bacterial growth; AmpC-overproducing clinical isolate; cefotaxime alone).
For `CC[C@H](C)[C@H](NC(=O)[C@@H](NC(=O)CN)C(C)C)C(=O)N[C@@H](Cc1ccccc1)C(=O)N[C@@H](CC(N)=O)C(=O)N[C@@H](C)C(=O)N[C@@H](CC(C)C)C(=O)N[C@@H](CCCCN)C(=O)NCC(=O)N[C@H](C(=O)N[C@@H](C)C(=O)N[C@@H](CCCCN)C(=O)N[C@H](C(=O)N[C@H](C(=O)N[C@@H](C)C(=O)N[C@@H](C)C(=O)N[C@@H](CCC(N)=O)C(=O)N[C@@H](CC(C)C)C(=O)N[C@@H](CC(C)C)C(=O)N[C@@H](CCCCN)C(=O)N[C@@H](CCCCN)C(=O)N[C@@H](C)C(=O)N[C@@H](CCCNC(=N)N)C(=O)N[C@H]1CSSC[C@@H](C(=O)O)NC(=O)[C@H](CO)NC(=O)[C@H](CCCCN)NC(=O)[C@H](CC(=O)O)NC(=O)[C@H](CC(C)C)NC(=O)[C@H](CCCCN)NC1=O)C(C)C)[C@@H](C)O)C(C)C`, the MIC was 2 µM (Staphylococcus aureus; NCTC 10788, Mueller-Hinton broth; with: FeCl3 4 mM).
The MIC of `CN(C)CCCNC(=O)[C@@H]1NC(=O)[C@@H]2Cc3ccc(cc3)Oc3cc4cc(c3O)-c3ccc5c(c[nH]c5c3)C[C@@H](NC(=O)C(NC(=O)CCCCCN)c3ccc(O)cc3)C(=O)N[C@H](c3ccc(O)cc3)C(=O)N[C@H]4C(=O)N[C@@H](C(=O)N2C)c2ccc(cc2)Oc2cc1ccc2O` (stereo partly drawn) is reported as 0.5 to 1 µg/mL (Enterococcus faecium; WCC 0534, VRE-A).
The tracer uptake of `CN[C@](C)(C[18F])C(=O)O` is reported as 5.1 %ID/g (MDA-MB-468 tumour model; host not given, liver; 15 min, tumour-bearing).
With `CCN(CC)Cc1cc(Nc2c(C3CCCC3)c(C)nc3cc(Cl)ccc23)ccc1O` the EC50 was 3.31 ± 0.73 µM (West Nile virus; viral replication, Rluc reporter replicon; Vero WNV replicon cells; 24 h).
For `CC[C@H](C)[C@H](NC(=O)[C@H](CCCNC(=N)N)NC(=O)CNC(=O)[C@H](CC(C)C)NC(=O)[C@H](CC(C)C)NC(=O)[C@H](CCCCN)NC(=O)[C@H](Cc1ccccc1)NC(=O)[C@H](C)N)C(=O)N[C@H](C(=O)N[C@@H](Cc1c[nH]cn1)C(=O)N[C@@H](Cc1c[nH]cn1)C(=O)N[C@H](C(=O)NCC(=O)N[C@@H](CC(N)=O)C(=O)N[C@@H](Cc1ccccc1)C(=O)N[C@H](C(=O)N[C@@H](Cc1ccc(O)c(O)c1)C(=O)NCC(=O)N[C@@H](Cc1ccccc1)C(=O)N[C@@H](CO)C(=O)N[C@@H](Cc1c[nH]cn1)C(=O)N[C@H](C(=O)N[C@@H](Cc1ccccc1)C(N)=O)C(C)C)C(C)C)C(C)C)[C@@H](C)CC`, the MIC was over 128 µM (Enterobacter cloacae; broth microdilution; AR 0136; pH 7.4).
`CC/C=C\C/C=C\C/C=C\C/C=C\C/C=C\C/C=C\CCC(=O)Nc1ccn(C2OC(CO)C(O)C2(F)F)c(=O)n1` (stereo not drawn) gave a CC50 of 35.3 µM (DU-145; NCI60 screen).
With `CC(C)CC(O)(CC(C)C)c1cn(C(=O)N2CCCC2)nn1` the protein level was 1.07 ± 0.04 (mouse T-cells; SILAC proteomics, item: OXSR1; 1 nM, 6 h, unit not given; relative to: DMSO).
For `CCCCCCCCCCCCCCCCCCSCC1OC(OC2C(N)CC(N)C(OC3OC(CN)C(O)CC3N)C2O)C(O)C(N)C1O` (stereo not drawn), the MIC was over 150 µg/mL (Bacillus cereus; ATCC 11778).
For `[O-][N+]1=C(c2ccsc2)C2=NCCCN2c2ccccc21`, the MIC was 0.125 µg/mL (Porphyromonas sp.).
`O=C1C[C@@H](c2ccc(O)cc2)Oc2cc(O)ccc21`: “hind paw volume” 1.67 ± 0.04 mL (Sprague-Dawley rat, Freund's adjuvant arthritis; oral, 10 mg/kg, 0 h, with: aconitine 1 mg/kg).

For quick reference, copied from above:
For `CO[C@H]1/C=C/O[C@@]2(C)Oc3c(C)c(O)c4c(c3C2=O)C2=NC3(CCN(CC(C)C)CC3)NC2=C(NC(=O)/C(C)=C\C=C\[C@H](C)[C@H](O)[C@@H](C)[C@@H](O)[C@@H](C)[C@H](OC(=O)c2cccnc2)[C@@H]1C)C4=O`, the MIC was 0.026 µM (Mycobacteroides abscessus; ATCC 19977 arr deletion; 90% growth inhibition).
